Measured values from different studies.
Every numbered part comes from another study and shows a few of its results, in no order.
UniProt P52564, sequence (whole entry, looked up): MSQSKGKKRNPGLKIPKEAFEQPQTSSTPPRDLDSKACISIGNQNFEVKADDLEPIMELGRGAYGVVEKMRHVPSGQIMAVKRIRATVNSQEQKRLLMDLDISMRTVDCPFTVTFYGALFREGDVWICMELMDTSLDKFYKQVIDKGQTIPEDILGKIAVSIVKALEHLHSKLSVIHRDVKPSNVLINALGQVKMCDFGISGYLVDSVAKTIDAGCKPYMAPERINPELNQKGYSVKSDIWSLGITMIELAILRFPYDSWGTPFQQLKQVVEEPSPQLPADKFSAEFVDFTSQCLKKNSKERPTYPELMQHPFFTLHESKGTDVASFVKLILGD
UniProt Q9H4A3, sequence (whole entry, looked up): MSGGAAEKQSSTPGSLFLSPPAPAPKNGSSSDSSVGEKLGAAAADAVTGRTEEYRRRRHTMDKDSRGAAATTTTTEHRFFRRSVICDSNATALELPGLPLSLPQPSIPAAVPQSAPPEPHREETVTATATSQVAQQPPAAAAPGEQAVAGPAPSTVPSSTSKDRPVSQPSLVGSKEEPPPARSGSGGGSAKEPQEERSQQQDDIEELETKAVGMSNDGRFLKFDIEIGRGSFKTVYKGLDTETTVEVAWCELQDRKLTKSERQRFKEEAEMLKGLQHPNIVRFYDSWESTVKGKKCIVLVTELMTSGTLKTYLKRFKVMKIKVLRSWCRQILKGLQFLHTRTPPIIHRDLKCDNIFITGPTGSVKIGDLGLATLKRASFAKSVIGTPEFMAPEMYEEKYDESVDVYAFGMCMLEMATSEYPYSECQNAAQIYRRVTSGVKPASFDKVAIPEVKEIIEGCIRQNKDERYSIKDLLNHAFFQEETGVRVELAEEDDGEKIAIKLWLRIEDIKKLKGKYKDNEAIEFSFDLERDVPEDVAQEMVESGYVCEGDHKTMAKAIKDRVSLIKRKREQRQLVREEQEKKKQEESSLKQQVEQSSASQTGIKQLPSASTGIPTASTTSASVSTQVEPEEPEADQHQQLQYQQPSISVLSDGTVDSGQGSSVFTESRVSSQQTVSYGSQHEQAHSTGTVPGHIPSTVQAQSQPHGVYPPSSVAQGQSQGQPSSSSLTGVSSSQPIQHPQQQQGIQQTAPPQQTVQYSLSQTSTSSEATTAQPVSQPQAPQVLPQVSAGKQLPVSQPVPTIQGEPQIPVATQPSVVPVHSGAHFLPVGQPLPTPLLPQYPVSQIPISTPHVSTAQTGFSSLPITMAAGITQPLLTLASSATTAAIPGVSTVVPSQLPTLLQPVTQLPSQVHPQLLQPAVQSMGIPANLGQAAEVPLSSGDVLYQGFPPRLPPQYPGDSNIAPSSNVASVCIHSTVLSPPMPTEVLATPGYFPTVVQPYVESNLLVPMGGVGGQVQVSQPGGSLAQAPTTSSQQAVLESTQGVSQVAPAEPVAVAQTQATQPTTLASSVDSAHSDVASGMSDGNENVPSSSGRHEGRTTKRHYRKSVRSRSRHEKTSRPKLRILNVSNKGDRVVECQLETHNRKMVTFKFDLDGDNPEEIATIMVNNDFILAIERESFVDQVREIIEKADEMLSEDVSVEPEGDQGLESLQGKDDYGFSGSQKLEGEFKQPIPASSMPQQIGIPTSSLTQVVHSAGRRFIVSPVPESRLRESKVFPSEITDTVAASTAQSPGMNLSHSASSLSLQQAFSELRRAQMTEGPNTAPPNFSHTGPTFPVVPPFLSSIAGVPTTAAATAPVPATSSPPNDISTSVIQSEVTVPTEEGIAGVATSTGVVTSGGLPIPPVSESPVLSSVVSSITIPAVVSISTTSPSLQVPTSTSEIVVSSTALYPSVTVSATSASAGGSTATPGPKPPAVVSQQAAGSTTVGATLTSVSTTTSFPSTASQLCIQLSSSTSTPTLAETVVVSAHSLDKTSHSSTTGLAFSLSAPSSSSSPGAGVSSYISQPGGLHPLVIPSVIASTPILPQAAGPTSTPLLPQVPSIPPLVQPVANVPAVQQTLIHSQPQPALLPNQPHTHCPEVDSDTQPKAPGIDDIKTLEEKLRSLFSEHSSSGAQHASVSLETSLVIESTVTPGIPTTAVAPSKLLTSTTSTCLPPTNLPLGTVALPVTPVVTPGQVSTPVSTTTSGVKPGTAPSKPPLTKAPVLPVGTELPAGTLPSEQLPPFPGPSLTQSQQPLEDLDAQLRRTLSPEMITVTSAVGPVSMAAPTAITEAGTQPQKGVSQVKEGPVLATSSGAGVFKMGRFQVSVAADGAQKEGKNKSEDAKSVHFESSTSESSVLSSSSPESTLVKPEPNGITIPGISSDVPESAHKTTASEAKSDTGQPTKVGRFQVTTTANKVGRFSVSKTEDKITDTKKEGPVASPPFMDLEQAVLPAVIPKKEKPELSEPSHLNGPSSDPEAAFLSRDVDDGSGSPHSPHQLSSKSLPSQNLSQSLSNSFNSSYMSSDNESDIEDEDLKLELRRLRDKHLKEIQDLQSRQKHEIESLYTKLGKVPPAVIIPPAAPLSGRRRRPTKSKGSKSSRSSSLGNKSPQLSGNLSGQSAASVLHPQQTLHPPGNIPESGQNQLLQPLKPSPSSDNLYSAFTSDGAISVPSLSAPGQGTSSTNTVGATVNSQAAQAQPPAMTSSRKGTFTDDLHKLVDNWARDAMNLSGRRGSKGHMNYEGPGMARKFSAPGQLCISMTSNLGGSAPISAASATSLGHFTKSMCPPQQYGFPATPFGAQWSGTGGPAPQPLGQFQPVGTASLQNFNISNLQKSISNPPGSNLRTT
UniProt Q9H2G2, sequence (whole entry, looked up): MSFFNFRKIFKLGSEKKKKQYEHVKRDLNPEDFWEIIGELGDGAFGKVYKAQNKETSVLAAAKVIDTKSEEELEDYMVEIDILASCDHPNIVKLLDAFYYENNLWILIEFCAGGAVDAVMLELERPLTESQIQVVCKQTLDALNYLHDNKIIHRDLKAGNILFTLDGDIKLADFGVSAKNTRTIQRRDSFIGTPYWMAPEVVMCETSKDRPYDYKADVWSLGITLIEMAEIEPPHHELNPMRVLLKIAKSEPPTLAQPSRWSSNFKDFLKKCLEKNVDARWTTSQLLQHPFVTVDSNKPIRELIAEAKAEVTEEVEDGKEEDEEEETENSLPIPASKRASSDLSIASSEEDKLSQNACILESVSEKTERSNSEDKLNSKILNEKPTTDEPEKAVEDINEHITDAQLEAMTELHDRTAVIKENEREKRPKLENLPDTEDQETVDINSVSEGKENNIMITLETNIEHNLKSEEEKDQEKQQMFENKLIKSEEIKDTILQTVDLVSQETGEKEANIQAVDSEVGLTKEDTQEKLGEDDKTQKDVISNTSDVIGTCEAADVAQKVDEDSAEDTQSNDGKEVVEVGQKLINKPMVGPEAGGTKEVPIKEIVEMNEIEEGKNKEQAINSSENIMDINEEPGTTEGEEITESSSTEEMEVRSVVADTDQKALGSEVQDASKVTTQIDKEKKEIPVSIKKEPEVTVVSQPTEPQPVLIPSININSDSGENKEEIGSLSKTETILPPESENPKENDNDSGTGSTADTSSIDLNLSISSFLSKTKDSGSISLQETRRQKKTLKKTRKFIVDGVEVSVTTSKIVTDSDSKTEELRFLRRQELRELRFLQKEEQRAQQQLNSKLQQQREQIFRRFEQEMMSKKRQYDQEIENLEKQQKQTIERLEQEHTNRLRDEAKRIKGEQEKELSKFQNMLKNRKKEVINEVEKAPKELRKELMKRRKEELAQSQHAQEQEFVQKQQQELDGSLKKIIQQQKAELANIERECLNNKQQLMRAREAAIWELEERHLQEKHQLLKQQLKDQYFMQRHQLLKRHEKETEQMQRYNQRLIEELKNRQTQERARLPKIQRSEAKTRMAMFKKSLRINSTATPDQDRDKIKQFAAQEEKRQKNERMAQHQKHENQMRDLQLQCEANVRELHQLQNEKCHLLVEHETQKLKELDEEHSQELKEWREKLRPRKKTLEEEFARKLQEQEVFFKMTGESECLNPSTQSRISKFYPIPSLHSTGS
UniProt O14757, sequence (whole entry, looked up): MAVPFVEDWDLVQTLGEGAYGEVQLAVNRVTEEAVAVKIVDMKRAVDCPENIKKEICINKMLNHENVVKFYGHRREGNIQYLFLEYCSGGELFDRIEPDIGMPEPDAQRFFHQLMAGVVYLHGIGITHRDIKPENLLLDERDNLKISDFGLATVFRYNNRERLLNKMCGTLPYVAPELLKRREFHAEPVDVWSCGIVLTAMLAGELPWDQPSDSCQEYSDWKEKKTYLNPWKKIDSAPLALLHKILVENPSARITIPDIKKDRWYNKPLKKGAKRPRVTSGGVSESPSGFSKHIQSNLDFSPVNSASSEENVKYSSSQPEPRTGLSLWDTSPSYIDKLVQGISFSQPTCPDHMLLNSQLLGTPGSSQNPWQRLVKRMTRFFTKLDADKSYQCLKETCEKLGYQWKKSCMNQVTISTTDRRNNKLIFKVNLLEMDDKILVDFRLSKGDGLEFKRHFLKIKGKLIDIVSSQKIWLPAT
UniProt Q9BQI3, sequence (whole entry, looked up): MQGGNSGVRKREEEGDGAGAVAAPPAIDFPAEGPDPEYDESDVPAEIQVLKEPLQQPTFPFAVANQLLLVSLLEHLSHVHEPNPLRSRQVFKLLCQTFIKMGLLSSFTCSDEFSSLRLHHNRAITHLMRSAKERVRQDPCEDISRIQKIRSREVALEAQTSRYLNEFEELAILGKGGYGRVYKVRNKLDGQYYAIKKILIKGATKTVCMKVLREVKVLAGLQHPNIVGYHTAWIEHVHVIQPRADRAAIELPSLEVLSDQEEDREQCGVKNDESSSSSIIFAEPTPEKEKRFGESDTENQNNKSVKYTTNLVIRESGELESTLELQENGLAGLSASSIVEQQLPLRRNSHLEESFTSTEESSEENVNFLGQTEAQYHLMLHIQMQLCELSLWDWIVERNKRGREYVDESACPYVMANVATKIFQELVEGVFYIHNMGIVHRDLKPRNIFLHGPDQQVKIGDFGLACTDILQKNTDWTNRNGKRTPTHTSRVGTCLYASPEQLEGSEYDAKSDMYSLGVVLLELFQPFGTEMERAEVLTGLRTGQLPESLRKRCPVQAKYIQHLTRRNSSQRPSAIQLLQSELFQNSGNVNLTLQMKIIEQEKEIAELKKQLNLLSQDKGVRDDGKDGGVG

Sample 1
SMILES: Cc1nc(Nc2ncc(C(=O)Nc3c(C)cccc3Cl)s2)cc(N2CCN(CCO)CC2)n1
Observed: enzyme activity
Mode: inhibitor
Concentration: 0.5 µM
Baseline: control
| target | remaining activity |
| --- | --- |
| MAPK13 (Homo sapiens, UniProt O15264) | 99.3% |
| WNK2 (Homo sapiens, UniProt Q9Y3S1) | 83.9% |
| LRRK2 (Homo sapiens, UniProt Q5S007) | 99.4% |
| AKT3 (Homo sapiens, UniProt Q9Y243) | 89.9% |
| CSNK2A1 (Homo sapiens, UniProt P68400) | 105% |
| Cyclin-dependent kinase 9, with cyclin T1 (CDK9, Homo sapiens, UniProt P50750) | 84.1% |
| PRKCD (Homo sapiens, UniProt Q05655) | 99.6% |
| LYN (Homo sapiens, UniProt P07948) | 0.427% |
| CSNK1A1 (Homo sapiens, UniProt P48729) | 98.2% |
| CHEK1 (Homo sapiens, UniProt O14757) | 96% |
| MAP2K6 (Homo sapiens, UniProt P52564) | 95.2% |
| MAPK12 (Homo sapiens, UniProt P53778) | 99.9% |
| PRKG1 (Homo sapiens, UniProt Q13976) | 84.6% |

Sample 2
Cell line: A-375
Concentration: 100 µM
Time: 18 h
| SMILES | viability [%] |
| --- | --- |
| C[N+](C)(C)CCO | 101 |
| CC(=O)Oc1cc(C(F)(F)F)ccc1C(=O)O | 79.2 |
| CC(C)(C)NCC(O)COc1cccc2c1C[C@H](O)[C@H](O)C2 (mixture of isomers) | 106 |
| CCC(=O)NCC[C@@H]1CCc2ccc3c(c21)CCO3 | 85.7 |
| N=C(N)c1ccc(OCCCCCOc2ccc(C(=N)N)cc2)cc1 | 57.5 |

Sample 3
Compound: N#CC1(c2ccccn2)CCN(Cc2cc(C(=O)N3CCCC3)c(=O)n3ccccc23)CC1
Observed: cell-free assay
Technique: competition with immobilised ligand
Concentration: 1 µM
| target | remaining binding [%] |
| --- | --- |
| MAPK8 (Homo sapiens, UniProt P45983) | 96 |
| SLK (Homo sapiens, UniProt Q9H2G2) | 100 |
| ULK2 (Homo sapiens, UniProt Q8IYT8) | 92 |
| COQ8A (Homo sapiens, UniProt Q8NI60) | 85 |
| CDKL2 (Homo sapiens, UniProt Q92772) | 93 |
| EIF2AK1 (Homo sapiens, UniProt Q9BQI3) | 83 |
| CAMK1D (Homo sapiens, UniProt Q8IU85) | 100 |
| PIP4K2C (Homo sapiens, UniProt Q8TBX8) | 58 |
| WNK1 (Homo sapiens, UniProt Q9H4A3) | 100 |
| ULK1 (Homo sapiens, UniProt O75385) | 91 |
| CAMK1G (Homo sapiens, UniProt Q96NX5) | 100 |
| PRKAA1 (Homo sapiens, UniProt Q13131) | 100 |

Further values, each from its own experiment
| SMILES | target | test | system | conditions | measurement | value |
| --- | --- | --- | --- | --- | --- | --- |
| O=C1CCC(N2Cc3c(ccc4c3OCC43CCC(Cc4ccccc4)CC3)C2=O)C(=O)N1 (stereo not shown) | CRBN/Zinc finger protein Helios (Homo sapiens, UniProt Q96SW2+Q9UKS7) | degrader, HiBiT | HEK293 | 13.72 nM | protein remaining | 84.5% |

Repeated from above (sample 1):
| target | remaining activity |
| --- | --- |
| WNK2 (Homo sapiens, UniProt Q9Y3S1) | 83.9% |
| Cyclin-dependent kinase 9, with cyclin T1 (CDK9, Homo sapiens, UniProt P50750) | 84.1% |
| MAPK12 (Homo sapiens, UniProt P53778) | 99.9% |
| PRKCD (Homo sapiens, UniProt Q05655) | 99.6% |
